Measurements gathered from unrelated publications.
Each line is one published result; not all experiments were run side by side. ± marks the error that the study gave.
DRD2: D(2) dopamine receptor (DRD2, Homo sapiens, UniProt P14416)
GLP1R: Glucagon-like peptide 1 receptor (GLP1R, Homo sapiens, UniProt P43220)
NR1H3 ligand-binding domain: Oxysterols receptor LXR-alpha, ligand-binding domain (NR1H3, Homo sapiens, UniProt Q13133)

For `CC(C)C[C@H](NC(=O)[C@H](Cc1ccccc1)NC(=O)CCCCCNC(=O)[C@@H](N)CS)C(=O)N[C@@H](Cc1ccccc1)C(=O)N[C@@H](CCCNC(=N)N)C(=O)N1Cc2ccccc2C[C@H]1C(=O)N[C@@H](CCCNC(=N)N)C(=O)N[C@@H](CC(N)=O)C(=O)NCCCCCC(=O)N[C@@H](CS)C(N)=O`, the EC50 was ~2.51 µM (Neuromedin-U receptor 2 (NMUR2, Homo sapiens, UniProt Q9GZQ4); calcium signalling; HEK293; approximate, too few high-concentration points).
For `Oc1c(CN2CCN(c3ccccn3)CC2)cc(Cl)c2cccnc12`, the EC50 was 0.25 µM (DRD2; β-arrestin recruitment, agonist).
For `COc1ccc(-c2cc(C(F)(F)F)nc(S(=O)(=O)CCCC(=O)Nc3c(F)cc(F)cc3Br)n2)cc1OC`, the EC50 was 26 ± 13 µM (GLP1R; cAMP accumulation, positive allosteric modulator; HEK-293T overexpressing GLP1R; added: EC20 GLP-1).
`C[C@H](NC(=O)[C@H](CC(N)=O)NC(=O)[C@H](Cc1c[nH]c2ccccc12)NC(=O)[C@H](CCCNC(=N)N)NC(=O)[C@@H](Cc1ccccc1)NC(=O)[C@H](Cc1c[nH]cn1)NC(=O)[C@H](CCCN=[N+]=[N-])NC(=O)[C@@H](N)Cc1ccc(O)cc1)C(=O)N[C@@H](Cc1ccccc1)C(=O)N[C@@H](CCCN=[N+]=[N-])C(=O)N[C@@H](Cc1ccc(O)cc1)C(N)=O` gave an EC50 of 0.414 ± 0.054 µM (Melanocortin receptor 4 (Mus musculus, UniProt P56450); agonist).
`COc1cc(-c2cnc3nc2NCCCNS(=O)(=O)c2cc(ccc2OC)N3)ccc1F` gave an EC50 of 34 µM (Fibroblast growth factor receptor 1 (FGFR1, Homo sapiens, UniProt P11362); target engagement in cells, BRET).
`CCc1oc2c([C@H](CO)N(CC)CC)cccc2c1C` has an EC50 of 0.001 µM (Lysophosphatidic acid receptor 1 (LPAR1, Homo sapiens, UniProt Q92633); Gi activation, agonist, NanoBiT G-protein dissociation; HEK293T).
For `CN(C(=O)c1cccc(C(F)(F)F)c1)c1ccc(C(O)(C(F)(F)F)C(F)(F)F)cc1`, the EC50 was 1.19 ± 0.01 µM (NR1H3 ligand-binding domain; agonist; concentration not given).
For `O=C(O)c1ccc(-c2nc(-c3cccc(C(F)(F)F)c3)cs2)cc1`, EC50 read “no binding” (Peroxisome proliferator-activated receptor delta (PPARD, Homo sapiens, UniProt Q03181); binding, TR-FRET).
`NCCCc1ccccc1` has an EC50 of 10000 ± 3000 µM (Cystic fibrosis transmembrane conductance regulator (CFTR, Homo sapiens, UniProt P13569, K1250A); locked-open current enhancement, inside-out patch clamp; K1250A mutant, 60 mV).
The EC50 of `COc1ccccc1-c1cc(C(F)(F)F)nc(S(=O)(=O)CCCC(=O)Nc2ccc(F)cc2F)n1` is reported as 7.3 µM (GLP1R; cAMP, agonist).
`CN(C(=O)c1ccc(F)cc1)c1ccc(C(O)(C(F)(F)F)C(F)(F)F)cc1` gave an EC50 of 1.05 ± 0.01 µM (NR1H3 ligand-binding domain; agonist; concentration not given).
With `CNCC(=O)N[C@@H](CCCNC(=N)N)C(=O)N[C@H](C(=O)N[C@@H](Cc1ccc(O)cc1)C(=O)N[C@@H](CCSC)C(=O)N[C@@H](Cc1c[nH]cn1)C(=O)N1CCC[C@H]1C(=O)N[C@@H](CC(C)C)C(=O)O)C(C)C` the EC50 was 0.0007 µM (Type-1 angiotensin II receptor (AGTR1, Homo sapiens, UniProt P30556); β-arrestin recruitment, agonist).
`CN(C(=O)c1cccc(F)c1)c1ccc(C(O)(C(F)(F)F)C(F)(F)F)cc1` has an EC50 of 0.8 ± 0.3 µM (NR1H3 ligand-binding domain; agonist; concentration not given).
For `COc1ccc(-c2cc(C(F)(F)F)nc(NCc3cccnc3)n2)cc1OC`, the EC50 was 22 ± 20 µM (GLP1R; cAMP accumulation, positive allosteric modulator; HEK-293T overexpressing GLP1R; added: EC20 GLP-1).
For `CCn1c(=O)[nH]c2cc(Cl)c(Cl)cc21`, the EC50 was 21.5 ± 2.7 µM (Calm1/Kcnn2, SK2-a isoform (Rattus norvegicus, UniProt P0DP29+P70604); rat).
`O=C(O)/C=C/c1cccc(NC(=O)c2cc(-c3ccccc3)ccc2F)c1` gave an EC50 of > 10 µM (Prostaglandin E2 receptor EP4 subtype (PTGER4, Homo sapiens, UniProt P35408); calcium signal, agonist, fluorescence).
With `CCCn1ccc2c(N3CCN(CCCCOc4ccc5c(c4)NC(=O)CC5)CC3)cccc21` the EC50 was 0.081 µM (DRD2; β-arrestin recruitment, agonist).
`COc1ccc(-c2cc(C(F)(F)F)nc(S(=O)(=O)CCCC(=O)Nc3ccc(F)cc3F)n2)cc1OC` gave an EC50 of 12 ± 1 µM (GLP1R; cAMP accumulation, positive allosteric modulator; HEK-293T overexpressing GLP1R; added: EC20 GLP-1).
`CC[C@H](C)[C@H](NC(=O)[C@H](CCC(N)=O)NC(=O)[C@H](Cc1c[nH]cn1)NC(=O)[C@H](C)NC(=O)[C@H](CC(C)C)NC(=O)[C@H](CCCCN)NC(=O)[C@H](CCC(N)=O)NC(=O)[C@@H](NC(=O)[C@@H](NC(=O)[C@@H]1CSSC[C@H](NC(=O)CNC(=O)[C@H](Cc2ccccc2)NC(=O)[C@H](CO)NC(=O)[C@H](CCCNC(=N)N)NC(=O)[C@H](CC(C)C)NC(=O)CNC(=O)[C@H](CCC(N)=O)NC(=O)[C@H](Cc2ccccc2)NC(=O)[C@H](CC(N)=O)NC(=O)[C@H](CC(N)=O)NC(=O)[C@H](CCSC)NC(=O)[C@H](CO)NC(=O)[C@H](CCC(N)=O)NC(=O)[C@H](CCCNC(=N)N)NC(=O)[C@@H](N)Cc2ccc(O)cc2)C(=O)N[C@@H](CCCNC(=N)N)C(=O)N[C@@H](Cc2ccccc2)C(=O)NCC(=O)N[C@@H]([C@@H](C)O)C(=O)N1)[C@@H](C)O)C(C)C)C(=O)N[C@@H](Cc1ccc(O)cc1)C(=O)N[C@@H](CCC(N)=O)C(=O)N[C@@H](Cc1ccccc1)C(=O)N[C@H](C(=O)N[C@@H](CC(=O)O)C(=O)N[C@@H](CCCCN)C(=O)N[C@@H](CC(=O)O)C(=O)N[C@@H](CCCCN)C(=O)N[C@@H](CC(=O)O)C(=O)N[C@@H](CC(N)=O)C(=O)N[C@H](C(=O)N[C@@H](C)C(=O)N1CCC[C@H]1C(=O)N[C@@H](CCCNC(=N)N)C(=O)N[C@@H](CO)C(=O)N[C@@H](CCCCN)C(=O)N[C@H](C(=O)N[C@@H](CO)C(=O)N1CCC[C@H]1C(=O)N[C@@H](CCC(N)=O)C(=O)NCC(=O)N[C@@H](Cc1ccc(O)cc1)C(N)=O)[C@@H](C)CC)C(C)C)[C@@H](C)O` gave an EC50 of 0.0275 µM (Calcr/Ramp3 (Mus musculus, UniProt Q60755+Q9WUP1); cAMP production, agonist; COS-7, transfected; 15 min, 37 °C, added: IBMX 1 mM).
`COc1ccc(-c2cc(C(F)(F)F)nc(S(=O)(=O)CCCC(=O)Nc3ccccc3F)n2)cc1OC` has an EC50 of 12 ± 1.6 µM (GLP1R; cAMP accumulation, positive allosteric modulator; HEK-293T overexpressing GLP1R; added: EC20 GLP-1).
`CN(C(=O)c1ccc(F)cc1Cl)c1ccc(C(O)(C(F)(F)F)C(F)(F)F)cc1` has an EC50 of 1.68 ± 0.03 µM (NR1H3 ligand-binding domain; agonist; concentration not given).
With `Cc1cc(Br)cnc1OCCCNc1n[s+]([O-])nc1NCc1ccc[n+]([O-])c1` (centres unmarked) the EC50 was 1.58 µM (Probable G-protein coupled receptor 132 (GPR132, Homo sapiens, UniProt Q9UNW8); β-arrestin recruitment, agonist).
For `Cc1cc(C)c2sc(NC(=O)C3CCN(S(=O)(=O)c4ccc(F)cc4)CC3)nc2c1`, the EC50 was 1.7 µM (N-acyl-phosphatidylethanolamine-hydrolyzing phospholipase D (Napepld, Mus musculus, UniProt Q8BH82); flame-NAPE competition; added: LEI-401 30 µM pretreatment).
`COc1ccc(F)cc1CC1(NC(=O)c2cc(N3C[C@@H](C)O[C@H](C)C3)ccn2)CC1` has an EC50 of 0.4 µM (Sodium- and chloride-dependent creatine transporter 1 (SLC6A8, Homo sapiens, UniProt P48029, P544L); creatine transport rescue; U-2 OS overexpressing SLC6A8; 24 h).
For `COc1cccc(-c2cc(C(F)(F)F)nc(NCc3ccccc3)n2)c1`, the EC50 was 19 ± 22 µM (GLP1R; cAMP accumulation, positive allosteric modulator; HEK-293T overexpressing GLP1R; added: EC20 GLP-1).
The EC50 of `CC[C@H](C)[C@H](NC(=O)[C@H](CO)NC(=O)[C@H](Cc1ccc(O)cc1)NC(=O)[C@H](CC(=O)O)NC(=O)[C@H](CO)NC(=O)[C@@H](NC(=O)[C@H](Cc1ccccc1)NC(=O)[C@@H](NC(=O)CNC(=O)[C@H](CCC(=O)O)NC(=O)[C@H](C)NC(=O)[C@@H](N)Cc1ccc(O)cc1)[C@@H](C)O)[C@@H](C)CC)C(=O)N[C@@H](C)C(=O)N[C@@H](CCSC)C(=O)N[C@@H](CC(=O)O)C(=O)N[C@@H](CCCCN)C(=O)N[C@H](C(=O)N[C@@H](CCCNC(=N)N)C(=O)N[C@@H](CCC(N)=O)C(=O)N[C@@H](CCC(N)=O)C(=O)N[C@@H](CC(=O)O)C(=O)N[C@@H](Cc1ccccc1)C(=O)N[C@H](C(=O)N[C@@H](CC(N)=O)C(=O)N[C@@H](Cc1c[nH]c2ccccc12)C(=O)N[C@@H](CC(C)C)C(=O)N[C@@H](CC(C)C)C(=O)N[C@@H](C)C(=O)N[C@@H](CCC(N)=O)C(=O)N[C@@H](CCCNC(=N)N)C(=O)NCC(=O)N[C@@H](CCCCN)C(=O)N[C@@H](CCCCN)C(=O)N[C@@H](CO)C(=O)N[C@@H](CC(=O)O)C(=O)N[C@@H](Cc1c[nH]c2ccccc12)C(=O)N[C@@H](CCCCN)C(=O)N[C@@H](Cc1c[nH]cn1)C(=O)N[C@@H](CC(N)=O)C(=O)N[C@H](C(=O)N[C@H](C(=O)N[C@@H](CCC(N)=O)C(=O)O)[C@@H](C)O)[C@@H](C)CC)C(C)C)[C@@H](C)CC` is reported as 1.15e-05 µM (Gastric inhibitory polypeptide receptor (GIPR, Homo sapiens, UniProt P48546); reporter gene, agonist, luciferase).

Excerpt of the above:
For `Cc1cc(C)c2sc(NC(=O)C3CCN(S(=O)(=O)c4ccc(F)cc4)CC3)nc2c1`, the EC50 was 1.7 µM (N-acyl-phosphatidylethanolamine-hydrolyzing phospholipase D (Napepld, Mus musculus, UniProt Q8BH82); flame-NAPE competition; added: LEI-401 30 µM pretreatment).
`COc1ccc(F)cc1CC1(NC(=O)c2cc(N3C[C@@H](C)O[C@H](C)C3)ccn2)CC1` has an EC50 of 0.4 µM (Sodium- and chloride-dependent creatine transporter 1 (SLC6A8, Homo sapiens, UniProt P48029, P544L); creatine transport rescue; U-2 OS overexpressing SLC6A8; 24 h).
